Measured values of several laboratories.
Each line is one published result; not all experiments were run side by side. Numbers after ± are the reported error.
Uncharacterized hydrolase SAUSA300_2518: Uncharacterized hydrolase SAUSA300_2518 (Staphylococcus aureus, UniProt Q2FDS6)
Chain of UniProt Q2FDS6 (whole entry, looked up): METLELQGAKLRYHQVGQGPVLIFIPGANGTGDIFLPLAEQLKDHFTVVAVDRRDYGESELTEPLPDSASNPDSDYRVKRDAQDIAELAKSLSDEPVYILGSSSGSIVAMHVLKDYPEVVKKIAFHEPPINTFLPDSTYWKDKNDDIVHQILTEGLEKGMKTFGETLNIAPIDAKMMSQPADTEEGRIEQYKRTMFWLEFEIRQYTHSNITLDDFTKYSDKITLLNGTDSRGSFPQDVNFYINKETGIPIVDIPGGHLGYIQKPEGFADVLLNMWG
lasR: Transcriptional activator protein LasR (lasR, Pseudomonas aeruginosa, UniProt P25084)
Chain of UniProt P25084 (whole entry, looked up): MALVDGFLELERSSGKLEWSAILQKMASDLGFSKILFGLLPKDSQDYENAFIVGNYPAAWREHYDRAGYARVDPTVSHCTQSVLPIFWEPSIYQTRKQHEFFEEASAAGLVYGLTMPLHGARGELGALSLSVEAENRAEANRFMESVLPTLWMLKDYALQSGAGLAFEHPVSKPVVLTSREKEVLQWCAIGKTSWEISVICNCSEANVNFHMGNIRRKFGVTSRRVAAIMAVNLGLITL
Formate-nitrite transporter: Formate-nitrite transporter (Plasmodium falciparum, UniProt O77389)
Chain of UniProt O77389 (whole entry, looked up): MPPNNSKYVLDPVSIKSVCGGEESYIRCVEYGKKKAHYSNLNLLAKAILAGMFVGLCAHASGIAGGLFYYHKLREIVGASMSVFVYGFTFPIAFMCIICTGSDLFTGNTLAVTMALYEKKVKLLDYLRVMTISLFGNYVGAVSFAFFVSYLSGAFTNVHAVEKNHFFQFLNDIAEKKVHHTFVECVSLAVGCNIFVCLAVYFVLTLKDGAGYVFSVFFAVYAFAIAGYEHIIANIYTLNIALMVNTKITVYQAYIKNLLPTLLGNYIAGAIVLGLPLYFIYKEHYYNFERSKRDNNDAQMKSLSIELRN
SIRT5: NAD-dependent protein deacylase sirtuin-5, mitochondrial (SIRT5, Homo sapiens, UniProt Q9NXA8)
Chain of UniProt Q9NXA8 (whole entry, looked up): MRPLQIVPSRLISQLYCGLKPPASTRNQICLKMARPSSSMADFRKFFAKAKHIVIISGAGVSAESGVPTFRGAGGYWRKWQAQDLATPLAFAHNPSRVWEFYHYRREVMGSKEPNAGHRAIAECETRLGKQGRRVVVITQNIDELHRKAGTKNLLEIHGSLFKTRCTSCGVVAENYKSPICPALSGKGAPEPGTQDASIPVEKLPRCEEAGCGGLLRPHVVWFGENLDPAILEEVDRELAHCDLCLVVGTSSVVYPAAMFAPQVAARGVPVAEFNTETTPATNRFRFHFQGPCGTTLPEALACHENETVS
blaNDM-1: Metallo-beta-lactamase type 2 (blaNDM-1, Klebsiella pneumoniae, UniProt C7C422)
Chain of UniProt C7C422 (whole entry, looked up): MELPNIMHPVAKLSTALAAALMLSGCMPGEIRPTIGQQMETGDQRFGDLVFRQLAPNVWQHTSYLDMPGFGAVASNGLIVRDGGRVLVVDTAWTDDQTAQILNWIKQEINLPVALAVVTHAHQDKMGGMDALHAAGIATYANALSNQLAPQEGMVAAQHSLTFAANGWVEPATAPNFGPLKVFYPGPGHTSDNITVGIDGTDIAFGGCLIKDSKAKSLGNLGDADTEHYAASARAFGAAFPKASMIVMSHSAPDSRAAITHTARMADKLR
CYP2C8: Cytochrome P450 2C8 (CYP2C8, Homo sapiens, UniProt P10632)
Chain of UniProt O55040 (whole entry, looked up): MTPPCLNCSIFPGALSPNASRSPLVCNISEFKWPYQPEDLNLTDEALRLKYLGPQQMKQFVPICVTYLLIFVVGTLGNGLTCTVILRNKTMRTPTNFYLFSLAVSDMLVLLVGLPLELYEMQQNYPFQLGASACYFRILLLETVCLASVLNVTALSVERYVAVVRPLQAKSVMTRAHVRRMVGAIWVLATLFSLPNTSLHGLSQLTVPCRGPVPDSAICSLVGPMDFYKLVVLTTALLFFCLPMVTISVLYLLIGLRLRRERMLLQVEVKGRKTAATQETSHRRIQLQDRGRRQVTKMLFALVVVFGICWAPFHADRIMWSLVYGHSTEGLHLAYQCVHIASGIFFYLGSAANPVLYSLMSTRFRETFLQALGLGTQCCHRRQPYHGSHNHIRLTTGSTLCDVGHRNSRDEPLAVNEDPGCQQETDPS
Chain of UniProt P11712 (whole entry, looked up): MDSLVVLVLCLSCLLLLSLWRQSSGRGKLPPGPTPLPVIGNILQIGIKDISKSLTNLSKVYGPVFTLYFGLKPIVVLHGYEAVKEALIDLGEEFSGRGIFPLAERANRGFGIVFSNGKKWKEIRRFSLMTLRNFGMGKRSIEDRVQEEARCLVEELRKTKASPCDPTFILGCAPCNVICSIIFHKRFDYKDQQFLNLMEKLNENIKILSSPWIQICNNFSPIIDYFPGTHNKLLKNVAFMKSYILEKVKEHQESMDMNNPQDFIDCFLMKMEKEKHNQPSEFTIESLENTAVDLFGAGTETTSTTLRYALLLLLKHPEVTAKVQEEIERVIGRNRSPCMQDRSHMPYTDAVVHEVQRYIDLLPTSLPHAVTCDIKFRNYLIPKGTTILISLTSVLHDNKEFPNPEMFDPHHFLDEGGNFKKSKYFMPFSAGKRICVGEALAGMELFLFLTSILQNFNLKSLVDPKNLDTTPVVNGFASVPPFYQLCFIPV
Chain of UniProt P61073 (whole entry, looked up): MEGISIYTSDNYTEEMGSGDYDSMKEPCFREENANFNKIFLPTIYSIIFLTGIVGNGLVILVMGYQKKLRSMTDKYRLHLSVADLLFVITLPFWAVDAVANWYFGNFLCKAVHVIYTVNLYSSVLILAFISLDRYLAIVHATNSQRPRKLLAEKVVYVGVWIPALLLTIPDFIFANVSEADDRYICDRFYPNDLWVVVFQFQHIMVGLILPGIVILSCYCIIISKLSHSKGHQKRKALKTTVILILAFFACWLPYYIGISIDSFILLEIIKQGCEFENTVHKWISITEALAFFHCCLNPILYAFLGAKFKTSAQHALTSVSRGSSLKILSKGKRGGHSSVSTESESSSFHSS
Chain of UniProt Q07343 (whole entry, looked up): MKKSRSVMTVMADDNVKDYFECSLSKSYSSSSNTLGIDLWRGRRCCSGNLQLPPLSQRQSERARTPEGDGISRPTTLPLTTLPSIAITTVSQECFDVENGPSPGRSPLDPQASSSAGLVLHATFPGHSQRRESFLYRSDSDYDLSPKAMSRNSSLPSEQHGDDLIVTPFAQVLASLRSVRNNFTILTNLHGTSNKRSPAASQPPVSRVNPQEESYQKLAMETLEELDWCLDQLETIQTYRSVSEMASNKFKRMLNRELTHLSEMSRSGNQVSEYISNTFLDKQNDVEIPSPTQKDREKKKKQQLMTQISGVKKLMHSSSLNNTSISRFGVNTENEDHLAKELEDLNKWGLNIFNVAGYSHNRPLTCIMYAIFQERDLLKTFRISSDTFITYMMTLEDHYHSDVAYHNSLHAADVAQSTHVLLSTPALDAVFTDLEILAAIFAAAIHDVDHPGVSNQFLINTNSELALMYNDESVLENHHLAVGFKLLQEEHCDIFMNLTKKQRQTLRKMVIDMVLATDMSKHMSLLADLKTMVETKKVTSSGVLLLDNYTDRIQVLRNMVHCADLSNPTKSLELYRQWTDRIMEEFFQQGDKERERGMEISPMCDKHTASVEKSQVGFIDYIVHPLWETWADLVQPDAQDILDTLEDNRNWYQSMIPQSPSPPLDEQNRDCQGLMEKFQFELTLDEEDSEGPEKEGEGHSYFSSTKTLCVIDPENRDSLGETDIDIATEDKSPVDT
Chain of UniProt Q9Y3R4 (whole entry, looked up): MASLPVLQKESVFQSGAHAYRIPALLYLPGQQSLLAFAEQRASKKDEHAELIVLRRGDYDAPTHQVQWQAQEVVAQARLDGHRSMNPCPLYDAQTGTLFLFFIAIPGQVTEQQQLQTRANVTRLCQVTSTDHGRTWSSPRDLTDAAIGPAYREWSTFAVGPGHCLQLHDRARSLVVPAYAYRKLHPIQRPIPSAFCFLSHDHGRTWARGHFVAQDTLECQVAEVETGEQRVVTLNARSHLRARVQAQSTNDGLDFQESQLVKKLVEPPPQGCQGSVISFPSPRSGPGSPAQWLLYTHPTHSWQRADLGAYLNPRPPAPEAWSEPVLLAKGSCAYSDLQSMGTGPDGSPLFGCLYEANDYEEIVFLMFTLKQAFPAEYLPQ
Chain of UniProt Q99436 (whole entry, looked up): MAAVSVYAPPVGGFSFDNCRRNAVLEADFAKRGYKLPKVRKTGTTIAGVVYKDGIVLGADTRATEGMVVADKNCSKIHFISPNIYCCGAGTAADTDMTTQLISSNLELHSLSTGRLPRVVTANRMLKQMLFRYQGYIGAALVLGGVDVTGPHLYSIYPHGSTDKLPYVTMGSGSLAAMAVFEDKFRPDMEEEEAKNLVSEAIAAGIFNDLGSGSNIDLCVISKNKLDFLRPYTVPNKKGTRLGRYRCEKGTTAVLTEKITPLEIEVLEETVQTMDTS
Chain of UniProt Q8IXJ6 (whole entry, looked up): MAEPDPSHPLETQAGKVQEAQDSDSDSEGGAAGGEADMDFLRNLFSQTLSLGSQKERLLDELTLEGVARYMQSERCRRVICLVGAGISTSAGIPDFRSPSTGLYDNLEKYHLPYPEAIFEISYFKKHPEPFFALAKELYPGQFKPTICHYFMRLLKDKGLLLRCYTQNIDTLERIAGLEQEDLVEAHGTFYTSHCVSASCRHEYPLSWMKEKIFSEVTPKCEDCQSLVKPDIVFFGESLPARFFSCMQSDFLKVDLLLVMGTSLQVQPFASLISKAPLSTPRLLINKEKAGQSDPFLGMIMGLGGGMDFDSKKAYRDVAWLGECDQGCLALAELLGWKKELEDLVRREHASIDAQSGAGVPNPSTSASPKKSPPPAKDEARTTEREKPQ
Chain of UniProt P26718 (whole entry, looked up): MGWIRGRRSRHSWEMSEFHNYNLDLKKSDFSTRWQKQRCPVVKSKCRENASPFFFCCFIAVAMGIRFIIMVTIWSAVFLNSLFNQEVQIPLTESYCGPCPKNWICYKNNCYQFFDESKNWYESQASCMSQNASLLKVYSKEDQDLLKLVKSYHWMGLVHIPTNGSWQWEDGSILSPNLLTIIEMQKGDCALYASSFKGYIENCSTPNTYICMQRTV

Structure (SMILES)	target	assay	system	conditions	IC50
O=C1CCN1c1cccc(O)c1	Uncharacterized hydrolase SAUSA300_2518	enzyme activity, inhibitor	–	–	> 50 µM
O=C(Cc1cccc(I)c1)N[C@H]1CCOC1=O	lasR	reporter gene, antagonist	Escherichia coli lasI-lacZ reporter	added: 5 nM OdDHL	0.6 µM
O=C(C=C(O)C(F)(F)C(F)(F)F)c1ccc(NC2CCC2)nc1	Formate-nitrite transporter	L-lactate transport, inhibitor, fluorescence	yeast	pH 6.8, added: L-lactate 1 mM	0.221 ± 0.028 µM
CN(C)C(=O)[C@@H](NC(=O)c1cc(-c2ccnn2C)ccc1-c1ccc(C(F)(F)F)cc1)c1cccc(C(F)(F)F)c1	NKG2-D type II integral membrane protein, with MICB (KLRK1, Homo sapiens, UniProt P26718)	ligand binding, inhibitor, cellular TR-FRET displacement	–	added: human MICB-AF647 at KD	1.3 µM
O=C(NCCCC[C@H](NS(=O)(=O)c1cccc(F)c1)C(=O)N[C@@H](Cc1c[nH]c2ccccc12)C(=O)NC1CCC1)c1cncc(OS(=O)(=O)F)c1	SIRT5	inhibitor, fluorogenic	–	16 h preincubation, His-tagged enzyme 150 nM, added: NAD+ 500 µM	16 ± 8 µM
O=C(C=C(O)C(F)(F)C(F)(F)F)c1cccnc1	Formate-nitrite transporter	L-lactate transport, inhibitor, fluorescence	yeast	pH 6.8, added: L-lactate 1 mM	0.095 ± 0.003 µM
CSCC[C@H](NC(=O)[C@@H](NC(=O)[C@H](Cc1c[nH]cn1)NC(=O)CNC(=O)[C@H](Cc1c[nH]cn1)NC(=O)[C@@H]1CCCN1C(=O)[C@H](C)N)C(C)C)C(=O)N[C@H](C(=O)N[C@@H](CCC(=O)O)C(=O)N[C@@H](CC(C)C)C(=O)O)C(C)C	HLA class I histocompatibility antigen, A alpha chain, allele A*26:01 (Homo sapiens, UniProt P04439)	peptide-MHC binding, radioligand competition binding	–	–	> 70 µM
CC(C)C[C@@H]1NC(=O)[C@@H](CCCNC(=N)N)NC(=O)[C@@H](CCCNC(=N)N)NC(=O)[C@H](CCC(=O)O)NC(=O)[C@@H]2CCCN2C(=O)[C@H](CC(C)C)NC(=O)[C@@H]2CCCN2C(=O)[C@@H](CS)NC1=O	blaNDM-1	enzyme activity, inhibitor, absorbance	–	–	7.16 µM
CSCC[C@H](NC(=O)[C@@H](N)CCCNC(=N)N)C(=O)N[C@@H](CO)C(=O)N[C@@H](C)C(=O)N1CCC[C@H]1C(=O)N[C@@H](CO)C(=O)N[C@H](C(=O)NCC(=O)NCC(=O)N[C@H](C(=O)O)C(C)C)[C@@H](C)O	HLA class I histocompatibility antigen, A alpha chain, allele A*02:07 (Homo sapiens, UniProt P04439)	binding	–	–	25.6 µM
CN(C(=O)c1ccn2ncc(-c3ccc(C(N)=O)cc3)c2c1)c1ccc(C#N)cn1	Phosphatidylinositol 4-kinase (Cryptosporidium parvum, UniProt Q5CVD3, S871L)	inhibitor	–	–	0.0085 ± 0.0002 µM
C#CCNC(=O)c1ccc(S(=O)(=O)N[C@@H](CCCCNC(=O)c2cc(OS(=O)(=O)F)c3ccccc3c2O)C(=O)N[C@@H](Cc2c[nH]c3ccccc23)C(=O)NC2CCC2)cc1	SIRT5	inhibitor, fluorogenic	–	4 h preincubation, His-tagged enzyme 150 nM, added: NAD+ 500 µM	6.12 ± 0.08 µM
CC(C)C[C@@H]1NC(=O)[C@@H]2CCCN2C(=O)[C@@H](CS)NC(=O)[C@H](Cc2ccc(O)cc2)NC(=O)[C@@H](CCCNC(=N)N)NC(=O)[C@@H]([C@H](C)O)NC(=O)C(C)(C)NC(=O)[C@@H]2CCCN2C1=O	blaNDM-1	enzyme activity, inhibitor, absorbance	–	–	22.3 µM
C#CCNC(=O)c1ccc(S(=O)(=O)N[C@@H](CCCCNC(C)=S)C(=O)N[C@@H](CC2CCCCC2)C(=O)N[C@@H](CCCNC(=N)N)C(=O)N[C@@H](CC2CCCCC2)C(=O)N[C@H](CCCCN)C(N)=O)cc1	SIRT2 (Homo sapiens, UniProt Q8IXJ6)	enzyme activity, inhibitor, fluorescence	–	–	1.62 µM
CCCCCCCCCC(=O)CC(=O)NC1CCCCC1=O (stereo not drawn)	lasR	reporter gene, antagonist	Escherichia coli, JLD271 with LasR plasmid	added: OdDHL 2 nM	no inhibition
CC(C)C[C@@H]1NC(=O)[C@@H](CCCNC(=N)N)NC(=O)[C@@H]([C@H](C)O)NC(=O)[C@H](CCC(=O)O)NC(=O)[C@@H]2CCCN2C(=O)[C@H](CC(C)C)NC(=O)[C@@H]2CCCN2C(=O)[C@@H](CS)NC1=O	blaNDM-1	enzyme activity, inhibitor, absorbance	–	–	51.1 µM
O=C(C=C(O)C(F)(F)C(F)(F)F)c1ccc(NCc2ccccc2)nc1	Formate-nitrite transporter	L-lactate transport, inhibitor, fluorescence	yeast	pH 6.8, added: L-lactate 1 mM	0.066 ± 0.011 µM
CC(C)C[C@@H](N)C(=O)NCC(=O)N[C@H](C)C(=O)N[C@H](CO)C(=O)N[C@H](Cc1c[nH]c2ccccc12)C(=O)N[C@H](Cc1c[nH]cn1)C(=O)N[C@H](CCCNC(=N)N)C(=O)N1CCC[C@@H]1C(=O)N[C@H](CC(=O)O)C(=O)N[C@H](CCCCN)C(=O)N[C@H](CCCCN)C(=O)N[C@H](CCCNC(=N)N)C(=O)NCCCCCC(=O)N[C@H](CCCCN)C(=O)N[C@H](CCCNC(=N)N)C(=O)N[C@H](CCCCN)C(=O)N[C@H](CCC(N)=O)C(=O)N[C@H](CCCNC(=N)N)C(=O)NCC(=O)N1CCC[C@@H]1C(=O)NCC(=O)N[C@H](CCCNC(=N)N)C(=O)N[C@H](C)C(=O)N[C@H](Cc1ccccc1)C(N)=O	CXCR4 (Homo sapiens, UniProt P61073)	cell migration, antagonist	–	–	0.87 µM
Cc1ccc2c(n1)c(-c1cccc(S(C)(=O)=O)c1)c(C)n2C/C(F)=C/CN	CYP2C8	enzyme activity, inhibitor	human, liver microsomes	–	2.3 µM

Structure (SMILES)	target	assay	system	conditions	IC50
O=C(NCc1cc(Br)cc(Br)c1OC(=O)c1ccccc1[N+](=O)[O-])c1ccccc1Cl	lasR	plasI-LVAgfp reporter, antagonist	PAO-JP2 pump-active	added: OdDHL 150 nM	no inhibition
Cc1nc(N2CCC(N(C)c3cc(C(=O)NCCN4CCCC4)cnn3)CC2)nc(C)c1CC(C)C	CYP2C8	enzyme activity, inhibitor	–	–	> 30 µM
O=C(c1cc(Cc2n[nH]c(=O)c3ccccc23)ccc1F)N1CC(CNC2CC2)C1	PARP15 (Homo sapiens, UniProt Q460N3)	enzyme activity, inhibitor	–	–	> 10 µM
O=C(O)C1=C[C@H](O)[C@@H](NC(=O)c2ccc(-c3ccccc3)cc2)[C@H]([C@H](O)[C@H](O)CO)O1	Sialidase-2 (Homo sapiens, UniProt Q9Y3R4)	enzyme activity, inhibitor	–	–	80 µM
O=C1C(Nc2ncccc2[N+](=O)[O-])CN1c1ccc(F)cc1 (stereo not drawn)	Uncharacterized hydrolase SAUSA300_2518	enzyme activity, inhibitor	–	–	> 50 µM
N=C(N)NCCC[C@H](NC(=O)[C@H](CCCCNC(=O)c1cncc(OS(=O)(=O)F)c1)NC(=O)CCC[P+](c1ccccc1)(c1ccccc1)c1ccccc1)C(=O)NC1CCC1	SIRT5	inhibitor, fluorogenic	–	pre-incubation 16 h, added: NAD+ 500 µM	10.9 ± 0.2 µM
O=C(O)CCn1c(=O)oc2cc(Cl)c(Cl)cc21	PDE4B (Homo sapiens, UniProt Q07343)	enzyme activity, inhibitor	–	–	> 158 µM
O=C(C=C(O)C(F)(F)C(F)(F)F)c1ccc(NCC2CC2)nc1	Formate-nitrite transporter	L-lactate transport, inhibitor, fluorescence	yeast	pH 6.8, added: L-lactate 1 mM	0.064 ± 0.016 µM
O=P(O)(O)C(Nc1ccccc1)P(=O)(O)O	polyphosphate kinase 2 (Cytophaga hutchinsonii, UniProt A0A6N4SMB5)	–	–	–	> 1000 µM
CSCC[C@@H]1NC(=O)[C@H](Cc2ccccc2)NC(=O)[C@@H](NC(=O)[C@@H](N)CCCCN)CSC(=O)[C@H](C(C)C)NC(=O)[C@H](Cc2ccccc2)NC1=O	Histidine kinase AgrC (Listeria monocytogenes, UniProt A8E0G3)	agr signalling	–	–	0.233 µM
Cc1ccc(CNC(=O)c2ccn3c(-c4ccc(C#N)cc4)cnc3c2)cn1	Cytochrome P450 2C9 (CYP2C9, Homo sapiens, UniProt P11712)	enzyme activity, inhibitor	–	–	> 10 µM
O=C(C=C(O)C(F)(F)C(F)(F)F)c1ccco1	Formate-nitrite transporter	L-lactate transport, inhibitor, fluorescence	yeast	pH 6.8, added: L-lactate 1 mM	0.059 ± 0.003 µM
COCCCC1CCCCN1C(=O)Oc1ccc([N+](=O)[O-])cc1 (stereo not drawn)	CES1 (Homo sapiens, UniProt P23141)	enzyme activity, inhibitor	–	–	0.11 µM
CC(C)C[C@H](NC(=O)[C@H](Cc1ccc(CN)cc1)NC(=O)[C@H](Cc1ccccc1)N=[N+]=[N-])C(=O)N[C@@H](CC1CC2CCC1C2)C(=O)[C@@]1(C)CO1 (stereo in doubt)	PSMB7 (Homo sapiens, UniProt Q99436)	inhibitor, competitive ABPP	Raji cell lysate	constitutive proteasome β2c	1.16 µM
COC(=O)Cc1cc2c(cc1C(=O)c1cccc(Br)c1)OCO2	Gria2/Glutamate receptor 3 (Rattus norvegicus, UniProt P19491+P19492)	ion current, patch clamp	–	–	5.41 µM
O=C(C=C(O)C(F)(F)C(F)(F)F)c1ccsc1	Formate-nitrite transporter	L-lactate transport, inhibitor, fluorescence	yeast	pH 6.8, added: L-lactate 1 mM	0.028 ± 0.005 µM
C#CCNC(=O)c1ccc(S(=O)(=O)N[C@@H](CCCCNC(=O)c2cncc(OS(=O)(=O)F)c2)C(=O)N[C@@H](CCCNC(=N)N)C(=O)NC2CCC2)cc1	SIRT5	inhibitor, fluorogenic	–	pre-incubation 24 h, added: NAD+ 500 µM	5 ± 1.9 µM
CCCCCCCCCCCCCCCCCC(=O)NC[C@H]1CC[C@H](C(=O)N[C@@H](CCC(=O)NCCCOCCOCCOCCCNC(=O)COCC(=O)N[C@@H](Cc2ccc(O)cc2)C(=O)NC(C)(Cc2ccccc2)C(=O)N[C@@H](CC(C)C)C(=O)N[C@@H](CCCC)C(=O)N[C@@H](CCCNC(=N)N)C(=O)N2CCC[C@H]2C(=O)N[C@@H](CCCNC(=N)NC)C(=O)N[C@@H](CC(N)=O)C(N)=O)C(=O)O)CC1 (stereo partly drawn)	Neuromedin-U receptor 1 (Mus musculus, UniProt O55040)	ligand displacement, radioligand	–	cell membranes	0.00047 µM
